# Published values collected from several papers.
# Each numbered part is a random draw from the data of one study; scales do not carry over between parts.

# Set 1 — technique: protein binding microarray; form: double-stranded DNA, one strand shown; medium: in vitro; concentration: not given; baseline: not given; reading: higher = stronger binding
# Target: Histone acetyltransferase KAT6A, winged helix 2, GST fusion (KAT6A, Homo sapiens, UniProt Q92794, residues 85-181)
# Setting: 8-mer, flanks averaged, mean of 2 arrays, mostly near background
# Construct (chain): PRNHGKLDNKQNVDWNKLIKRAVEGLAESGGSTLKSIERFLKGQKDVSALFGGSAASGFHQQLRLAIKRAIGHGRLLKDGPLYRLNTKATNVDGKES
Strand,E-score
CGTATCGC,0.0498
AAACTATT,-0.0691
ATAGATAG,-0.168
ATCGACTG,-0.107
ACGCTAGA,-0.0979
ACCCGCAG,0.221

# Set 2 — technique: universal PBM; form: double-stranded DNA, one strand shown; medium: in vitro; concentration: 600 nM; reading: higher = stronger binding
# Target: Sal-like protein 4, full length isoform A (SALL4, Homo sapiens, UniProt Q9UJQ4, residues 1-1053)
# Chain of UniProt Q9UJQ4 (whole entry, looked up): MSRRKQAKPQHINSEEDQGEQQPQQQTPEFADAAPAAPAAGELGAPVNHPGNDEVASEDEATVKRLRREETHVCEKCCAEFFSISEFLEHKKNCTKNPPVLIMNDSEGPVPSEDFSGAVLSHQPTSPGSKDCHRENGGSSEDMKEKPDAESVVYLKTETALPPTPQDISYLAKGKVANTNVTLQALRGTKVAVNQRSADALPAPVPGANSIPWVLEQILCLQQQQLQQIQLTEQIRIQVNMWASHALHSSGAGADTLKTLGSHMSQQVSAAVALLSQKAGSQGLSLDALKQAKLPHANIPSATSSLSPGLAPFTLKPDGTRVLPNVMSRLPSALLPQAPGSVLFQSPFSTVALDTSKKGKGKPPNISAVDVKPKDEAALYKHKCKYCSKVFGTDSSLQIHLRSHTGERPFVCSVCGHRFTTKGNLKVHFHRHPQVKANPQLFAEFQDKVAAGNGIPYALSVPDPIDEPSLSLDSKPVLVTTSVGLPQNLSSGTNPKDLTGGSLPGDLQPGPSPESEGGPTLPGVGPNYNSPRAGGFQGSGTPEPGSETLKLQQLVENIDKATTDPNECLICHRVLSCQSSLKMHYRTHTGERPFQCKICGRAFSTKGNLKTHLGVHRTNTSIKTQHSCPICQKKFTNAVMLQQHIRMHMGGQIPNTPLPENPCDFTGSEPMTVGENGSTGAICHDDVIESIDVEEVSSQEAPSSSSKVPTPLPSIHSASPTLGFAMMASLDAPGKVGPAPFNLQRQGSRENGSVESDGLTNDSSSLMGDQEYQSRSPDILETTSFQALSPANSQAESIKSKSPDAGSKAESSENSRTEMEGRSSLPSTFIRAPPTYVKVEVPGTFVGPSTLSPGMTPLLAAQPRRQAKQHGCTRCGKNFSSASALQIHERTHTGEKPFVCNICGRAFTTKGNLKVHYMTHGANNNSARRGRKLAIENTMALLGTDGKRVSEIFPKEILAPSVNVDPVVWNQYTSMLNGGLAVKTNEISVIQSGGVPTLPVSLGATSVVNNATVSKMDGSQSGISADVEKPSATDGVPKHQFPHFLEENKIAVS
# Setting: 8-mer, flanks averaged, mean of replicates
Strand,E-score
AGGTCAGG,-0.36
ATTGTGGG,0.0103
AACATTCA,0.0966
AAACCCCC,-0.259

# Set 3 — technique: protein-binding microarray; form: double-stranded DNA, one strand shown; medium: in vitro; concentration: 250 nM; setting: 60-bp whole probe; with: salmon DNA 0.4 mg/ml; baseline: random background probes; reading: higher = stronger binding; constant ends, left off below: GCCTAGCACT … GTCTTGATTCGCTTGACGCTGCTG
# Target: Interferon regulatory factor 7, full length, phosphomimetic (IRF7, Homo sapiens, UniProt Q92985, residues 1-503, S101K/S471D/S472D/S475D/S476D/S477D/S483D/S484D/S487D)
# Chain of UniProt Q92985 (whole entry, unmodified, looked up): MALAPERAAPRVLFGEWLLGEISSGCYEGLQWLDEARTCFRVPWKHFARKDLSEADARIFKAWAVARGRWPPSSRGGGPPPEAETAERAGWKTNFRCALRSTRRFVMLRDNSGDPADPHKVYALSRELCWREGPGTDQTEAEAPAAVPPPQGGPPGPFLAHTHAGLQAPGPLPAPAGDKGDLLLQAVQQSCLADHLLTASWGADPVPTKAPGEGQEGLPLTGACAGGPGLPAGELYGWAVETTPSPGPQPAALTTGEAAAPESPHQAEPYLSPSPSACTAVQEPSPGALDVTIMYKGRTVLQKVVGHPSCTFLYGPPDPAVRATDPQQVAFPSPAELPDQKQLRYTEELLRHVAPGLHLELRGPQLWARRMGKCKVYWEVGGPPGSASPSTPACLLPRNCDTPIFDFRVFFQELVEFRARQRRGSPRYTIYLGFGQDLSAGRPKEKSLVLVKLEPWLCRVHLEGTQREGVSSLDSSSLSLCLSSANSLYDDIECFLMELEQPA
Strand,log fluorescence
CATATAGGTTGTTTCTAACTGTGCTA,0.16 z-score
TAGGTTTCGGTCTCCGTTAGTGCTAG,8.93 z-score
ATTGTGCAATTAGAGCCCTGTGCTAG,-0.176 z-score
TAGGTATCGGATATCGGTTAGTGCTA,0.489 z-score
TAGGTTTCGACAATGGGTTAGTGCTA,2.69 z-score

# Further values, each from its own experiment
Substance,target,test,system,setting,scale,quantity,value
"PhoQ, residues 284 288 289 292 302 303 SSTMSV","PhoP, residues 12 14 15 18 19 GQAIL (Escherichia coli, UniProt P23836)","Sort-seq, item: YFP reporter",E. coli,"PhoQ-PhoP variant library, with: 10 µM Mg2+","baseline: high Mg2+ state, higher = stronger signaling",fold induction,3.08

# Some of these lines once more (set 3):
Strand,log fluorescence
CATATAGGTTGTTTCTAACTGTGCTA,0.16 z-score
